Results of several laboratories.
A part holds a random share of what one study measured. Positions count from the first letter of the parent shown.
UniProt Q9C0B0, sequence (30-357, looked up): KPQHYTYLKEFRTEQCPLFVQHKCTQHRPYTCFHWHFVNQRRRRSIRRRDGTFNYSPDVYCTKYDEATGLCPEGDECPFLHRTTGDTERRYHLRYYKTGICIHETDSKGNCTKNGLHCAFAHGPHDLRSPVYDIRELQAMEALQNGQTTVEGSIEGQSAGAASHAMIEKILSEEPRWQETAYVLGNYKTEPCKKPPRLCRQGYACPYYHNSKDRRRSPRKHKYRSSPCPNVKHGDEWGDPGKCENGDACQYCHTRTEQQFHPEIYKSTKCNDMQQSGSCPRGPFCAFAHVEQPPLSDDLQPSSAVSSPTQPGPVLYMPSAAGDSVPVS

Block 1
Target: Sal-like protein 4, full length isoform A (SALL4, Homo sapiens, UniProt Q9UJQ4, residues 1-1053)
UniProt Q9UJQ4, sequence (whole entry, looked up): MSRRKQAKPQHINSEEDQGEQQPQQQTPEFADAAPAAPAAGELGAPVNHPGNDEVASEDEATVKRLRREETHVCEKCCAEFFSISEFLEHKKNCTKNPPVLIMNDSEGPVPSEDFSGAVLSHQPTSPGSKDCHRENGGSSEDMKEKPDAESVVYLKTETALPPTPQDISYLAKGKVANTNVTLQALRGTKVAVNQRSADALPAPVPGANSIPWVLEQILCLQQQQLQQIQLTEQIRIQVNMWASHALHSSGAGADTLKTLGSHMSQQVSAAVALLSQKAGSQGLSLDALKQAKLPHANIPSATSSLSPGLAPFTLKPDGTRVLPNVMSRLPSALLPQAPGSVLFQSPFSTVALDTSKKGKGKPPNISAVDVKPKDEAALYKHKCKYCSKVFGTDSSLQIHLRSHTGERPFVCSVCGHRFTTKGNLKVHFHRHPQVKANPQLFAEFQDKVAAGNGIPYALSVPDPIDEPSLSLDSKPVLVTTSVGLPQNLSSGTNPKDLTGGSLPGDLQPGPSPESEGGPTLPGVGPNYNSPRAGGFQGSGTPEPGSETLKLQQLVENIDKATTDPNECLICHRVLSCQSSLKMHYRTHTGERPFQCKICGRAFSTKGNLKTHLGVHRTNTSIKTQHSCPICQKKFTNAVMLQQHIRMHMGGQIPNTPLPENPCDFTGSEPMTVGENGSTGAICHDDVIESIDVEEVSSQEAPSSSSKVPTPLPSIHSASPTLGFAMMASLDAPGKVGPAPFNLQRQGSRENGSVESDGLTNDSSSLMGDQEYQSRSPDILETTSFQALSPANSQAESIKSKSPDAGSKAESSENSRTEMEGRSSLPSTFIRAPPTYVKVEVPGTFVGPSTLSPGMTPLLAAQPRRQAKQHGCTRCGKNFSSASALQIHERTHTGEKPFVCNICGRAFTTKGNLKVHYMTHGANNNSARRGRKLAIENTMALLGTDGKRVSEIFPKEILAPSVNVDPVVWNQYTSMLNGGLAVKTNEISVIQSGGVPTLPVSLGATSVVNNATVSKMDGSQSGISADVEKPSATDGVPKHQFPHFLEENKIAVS
Method: universal PBM
Form: double-stranded DNA, one strand shown
Medium: in vitro
Tested at: 600 nM
Notes: 8-mer, flanks averaged, mean of replicates
Reading: higher = stronger binding
Strand | E-score
AATCACAG | 0.0072
TACGCCGA | -0.209
TACCTTAA | 0.0815
AAGAGTAT | 0.27
CTAAGAAG | 0.204
ATGGCATC | 0.0419
ACTCGTCA | -0.0111
CTCCTCAA | -0.116
CAGTTTAA | 0.0902
AAGTACTA | 0.218
AGTTTAGC | -0.0869
CGGGCCCA | -0.324
AGCTGTTC | -0.196
GAACAAAC | 0.19
CGATGGCC | -0.049
CGCGGGGA | -0.355
AAGGCGCT | -0.0734
ACTGTCGG | -0.229
AGCAAAAT | 0.252
CCGGCTTC | -0.363
CCGGGACC | -0.395

Block 2
Target: Ras GTPase-activating protein-binding protein 1, C-terminal RGG region (G3BP1, Homo sapiens, UniProt Q13283)
UniProt Q13283, sequence (whole entry, looked up): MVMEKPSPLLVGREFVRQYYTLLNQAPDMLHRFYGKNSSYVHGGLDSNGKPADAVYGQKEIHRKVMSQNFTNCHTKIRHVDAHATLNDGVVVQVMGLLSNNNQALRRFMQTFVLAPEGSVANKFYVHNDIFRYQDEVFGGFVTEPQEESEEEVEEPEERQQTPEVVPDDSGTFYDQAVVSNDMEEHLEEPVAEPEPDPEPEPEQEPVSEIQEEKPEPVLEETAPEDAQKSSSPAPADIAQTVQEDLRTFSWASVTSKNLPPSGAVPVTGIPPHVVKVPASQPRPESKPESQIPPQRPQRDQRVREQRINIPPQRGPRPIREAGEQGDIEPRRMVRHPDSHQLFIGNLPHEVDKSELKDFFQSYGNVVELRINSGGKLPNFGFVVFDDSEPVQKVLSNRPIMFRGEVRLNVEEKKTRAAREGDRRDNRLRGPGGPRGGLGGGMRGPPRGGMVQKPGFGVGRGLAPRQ
Method: RNA Bind-n-Seq
Form: RNA
Medium: in vitro
Tested at: 1 µM
Notes: whole 134-nt RNA, ends assumed
Together with: 150 mM KCl
Baseline: input library
Reading: higher = stronger binding
Shared flanks, not repeated: GGGAGUUCUACAGUCCGACGAUC … UGGAAUUCUCGGGUGUCAAGG
Strand | log2 enrichment
UAAUUUAGAUCUUAAAGAAAAAGUGGAGCCUGAGGUUCUCAGCACUGAUACCCAAACUUCCCCAGAGCCAGGCACAAGGAUGAACAUUCU | -1.17
CAGAGACAACACGCACCCACACAGACACAGAGGGAAGGGGUUGGGAUGGGGACAGGGUGCACAGCAGGGCGGGGUAGGACCCCAGCCCCU | -0.321
UGAAAAGAACUGCUCUCCAUGGAGAGAGUAACUCUGUCCUUAUUAUCGGACCCCGAGGAUCAGGAAAAACUAUGGUAAAAGCUGUUGAUU | -1.78
AGUCCUGUGCUACACAUCGUAUGUACCGAAUCGGGAAAAAAAGGGUGGGUUUUUGGGAAAGUAUUAUGUUACGCCGUUCGGAUCUGCACU | 0.751
UUAUGGAGUUUGGCCCUGAGGACAUGCUGCUGGGCAUGGAUGAGGCUGAAGAUGAUGAGGACCUGGAGGCUGAGCUGCUGGCUCUCACAG | -1.27
CCUGUGCUACACAUCGUAUGUACCGAAUCGGGUUUUUUGGGUUUUUUGGGUUUUUUGGGGAAAGUAUUAUGUUACGCCGUUCGGAUCUGC | -1.45
UGGCCCUGGUGGCAUGCGGGGAGGAAGAGGUGGCCUCAUGGAUCGUGGUGGUCCCGGUGGAAUGUCCAGAGGUGGCCGUGGUGGAGACAG | 1.88
AGUCCUGUGCUACACAUCGUAUGUACCGAAUCGGGGAAAAGGGGAAAAGGAAAAGGGGAAAGUAUUAUGUUACGCCGUUCGGAUCUGCAC | -0.337
UAACUUUAGAGGAGGAUCUGAUGGAUAUGGCAGUGGGCGUGGAUUUGGGGAUGGCUAUAAUGGGUAUGGAGGAGGACCUGGAGGUGGCAA | -0.147
CAUCAAAAUAGCUACAAACCAUACUAAAUUAUUCCAUUUGCAACUUAUCCCCAACAGGUAUGUUCUAAAAAUAGUUUUUUUUUGUCAUUU | -0.45
CUGUGCUACACAUCGUAUGUACCGAAUCGGUUUUUUUGGGGUUUUUUUGGUUUUUUUGGGGAAAGUAUUAUGUUACGCCGUUCGGAUCUG | -1.5
CCUCAAGUCCUGUGCUACACAUCGUAUGUACCGAAUCGGGGUGGUGGGUGGGAAAGUAUUAUGUUACGCCGUUCGGAUCUGCACUUCCAG | 0.928
GCAGGAAGUAAAAACAAAUGGAAAUGCUUCGGAUAGUGUCAGGGGUGGGGGUUGCUAAGGAAAGGGUGGGAUGGGAGUGGGUAAAGAGUU | 0.997
CCUGUGCUACACAUCGUAUGUACCGAAUCGGGGAAAAAAAGGGGAAAAAGGGGAAAGGGGAAAGUAUUAUGUUACGCCGUUCGGAUCUGC | 1.32

Block 3
Target: TAR DNA-binding protein 43, full length, His tag (TARDBP, Homo sapiens, UniProt Q13148, residues 1-414)
Method: RNA Bind-n-Seq
Form: RNA
Medium: in vitro
Tested at: 20 nM
Notes: 6-mer, flanks averaged, single round
Together with: 150 mM KCl
Baseline: input library
Reading: higher = stronger binding
Strand | 6-mer enrichment (R)
CGUAAU | 0.605
GUGAAU | 1.07
GACGAG | 1.7
AAAUAC | 0.613
UGUACG | 0.939
CUAACU | 0.581
CGGGGG | 7.89
UAAGUA | 0.693
CCUAAC | 0.602
UGGUCA | 0.772
UUAGGG | 1.78
GCUCUU | 0.6
CAUAGU | 0.631
UGGGAU | 1.76
GCUUAC | 0.63
CACUUA | 0.579
AGUUAA | 0.604
AGGAUU | 0.683
CUAGGG | 2.01
CUUCCU | 0.56
AGCUGG | 1.44
UAGCGU | 0.811
GGCCGG | 3.6

Block 4
Target: RNA binding protein fox-1 homolog 2, RRM domain, GST-SBP tag (RBFOX2, Homo sapiens, UniProt O43251-10, residues 100-194)
Method: RNA Bind-n-Seq
Form: RNA
Medium: in vitro
Tested at: 365 nM
Notes: natural RNA segment, single round, ends assumed
Baseline: no-protein control
Reading: higher = stronger binding
Shared flanks, not repeated: GGGAGUUCUACAGUCCGACGAUC … UGGAAUUCUCGGGUGCCAA
Residues (chain): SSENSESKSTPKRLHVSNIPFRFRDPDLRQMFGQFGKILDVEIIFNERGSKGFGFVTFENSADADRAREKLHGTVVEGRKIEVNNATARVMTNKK
Strand | RBNS enrichment (R)
UCCCAGCGAAGGGGGACCGCCGUUUGCACUUUCAUCGCCUACCCCGACGCGGGGCCCAGCUGCGGGACGUGCAUCACGGCUGGGCCCCCAGAGGAGAGAGGAGGCCGACG | 0.35
UCAGCCGAUGACUUCAGGGUGUCAAACUGUUUUAAUUUUUCAAACAAAUGGAACAGAAGCCAUUGUGGUUCAUCCUGAUUACUUGAACGUUGCACUUGGUGGACCGUGCC | 0.433
GUUUGACUGUGCUCCCUGGUCCUGUGAGGGCUUCAGUGCCCCACCCCUGGGCCACUUCUGCAGCUCCCACCAGAAUGGAUGACCAGAUUCUGUUGGGUUUGGGCACAUAG | 0.659
GCAGGACCUCACUUGCCAGUAGAACCCACAGAACAGGUAUGGCCUAGGAUGCUGUCAGCCUGAGAGUGAAAGUGGGCACUCAUUUCUCCUGGUUUUUGAAGAGCCUGUUA | 6.49
UAGUGACAUUAGGCAGAAAUGGCCAGUCAAACACAUAGCAGUGUUCCAUAGACUUGGUAGAAUGGUCUAUUUUUAAUACCUGUUAUGAUUUUGUUUUUUAGGAAAUAUAC | 0.417
AACUGCUCCUUGGUGGCCAUUAGAUCGAGUCAGUUUUGAUCUGCAUCACUUAGUUAUUGGGAAUUUCUUUGUUGGAAACAGGAAAAUUUUUUUAGAUUAUUUGGUGUACG | 0.321
AGCACUGUUCAGGCUGCCUGUCAUCCCGGGCCUGCCAGCUCCCCUGAGUGAUGAGCACUUCCAAGCACCCCUCUGCCCUUUCUCUGUCCUUAUGCUGUCCCGGCCUCGCC | 0.57
UACACCUCCAGAAUGAUAGCUGACAUUUUUGUUUUGUUUUUCAGCAGUUGCCAUGAGCCAAACCCUAAGUUAAAUAUGUAUCCUACAUAAGAGCUAAUCUCACCACUACA | 0.678
UUGCUGUAGGCCACAUGCUGAAGGCAAGCCAACCCGAGGACGAGGACAGUCCCUGGAUCCUACACAGCUAAUCCAAGCCAAUAAAGGGCUCUCACAAGUGGUUGUUCCUC | 0.182
GUUUUUCUAAGGGUCAACUCAGACUGCCCUGUACCCUGGAAAAAUAGCAAUAGCAGCCCCAUCUACCCUUUGAGUCCUCAACUAAACACCAGUGGGAAGAGAACCGUUCC | 0.288
GUUGUUUUUUUUUUCAGUUAUUUCUUCAAGGGAAACUAAAUGAUUUAGUUGGAGCAAAGCUUUAAGUGUGUUGGCGUGCUUCUGUGUGGCUGUCCUGUGUCGCCAGGUCG | 1.53
CCUGGACCACCAUGGGGAGGAAGAGUCCCACUCAUUACAAAUAAAGAAAGGUGGUGUGAGCCUGGGAGUGGGUGUCUCCAGUUCCAUGUGGCCAAAUCCUAGGGCCUCAA | 0.572

Block 5
Target: Histone acetyltransferase KAT6A, winged helix 2, GST fusion (KAT6A, Homo sapiens, UniProt Q92794, residues 85-181)
Method: protein binding microarray
Form: double-stranded DNA, one strand shown
Medium: in vitro
Tested at: not given
Notes: 8-mer, flanks averaged, mean of 2 arrays, mostly near background
Baseline: not given
Reading: higher = stronger binding
Construct (chain): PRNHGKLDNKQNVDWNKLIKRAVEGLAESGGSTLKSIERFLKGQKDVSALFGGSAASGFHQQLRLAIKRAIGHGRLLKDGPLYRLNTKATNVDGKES
Strand | E-score
CAAGCGGC | 0.167
ACGCTTGC | 0.0474
ACGTCTAC | -0.261
GACTCTGA | -0.117
CTCAAACA | 0.182
CTGACAAG | 0.0244
AAAGCCAG | -0.0578
CCCAGCTC | -0.0595
ACGTACGC | -0.176
AAAAAGAT | 0.131
CATATGCC | -0.138
CGGATGTC | 0.154
TCGGACCA | 0.068
CGACGCCA | 0.0249
AATCTCGC | 0.171
CGGGTCTA | -0.0412
GCCTAAGC | 0.119
AATATCAC | 0.0265
ACAAGCCT | -0.107
CCTTAACG | -0.05
ACACCTTG | -0.0685
ATGCCGTA | 0.0873
CTATTCTA | 0.0274
GTACTTCA | 0.0828
ATACTCAA | 0.173

Block 6
Target: CCNB2, cyclin fold, Cln2 fusion (human)
Method: yeast growth competition, sequencing
Medium: yeast
Notes: weak parent motif
Baseline: not given
Reading: higher = stronger binding
Starting sequence: RP1L1 docking peptide (human); TLGLGPLSFTLED; partner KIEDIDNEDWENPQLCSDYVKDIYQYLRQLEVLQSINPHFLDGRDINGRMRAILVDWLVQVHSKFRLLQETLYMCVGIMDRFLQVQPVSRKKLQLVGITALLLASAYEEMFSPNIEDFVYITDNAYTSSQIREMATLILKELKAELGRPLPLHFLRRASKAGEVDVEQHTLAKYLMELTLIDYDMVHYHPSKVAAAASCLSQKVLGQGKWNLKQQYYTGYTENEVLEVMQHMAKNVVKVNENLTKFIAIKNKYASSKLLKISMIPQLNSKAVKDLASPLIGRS
Substitution | normalised enrichment score
TLGLGPASFTLED [L7A] | -0.533
TLALGPLSFTLED [G3A] | -0.888
TLGLGPLSFALED [T10A] | -0.79
TLGLAPLSFTLED [G5A] | -0.584
TLGLGPLSATLED [F9A] | -0.526
TLGAGPLSFTLED [L4A] | -0.832
TLGLGPLSFTAED [L11A] | -0.998

Mixed results
Strand | target | assay | test system | conditions | scale | quantity | value
GGGAGUUCUACAGUCCGACGAUCUAAGAAUUGGAAGAAUUGUGCCGGAGGCAGCCGUCAAAAAGCCGAAGCAGUUUGGAAGAGCCGUUACAAAUAUCAAGAGCCAGGUGGCUAAAAGGUGGAGCUACCGGUCAUUGAAGCUCACAACAGAGGAUUGAGCAUCA | RING finger protein unkempt homolog, zinc fingers 1-6, SBP tag (UNK, Homo sapiens, UniProt Q9C0B0, residues 30-357) | RNA Bind-n-Seq | RNA, in vitro | 100 nM, RNA with constant flanks, ends assumed | baseline: input RNA pool, higher = stronger binding | bound/input enrichment | 0.454 ratio

Excerpt of the above (block 2):
Strand | log2 enrichment
CAUCAAAAUAGCUACAAACCAUACUAAAUUAUUCCAUUUGCAACUUAUCCCCAACAGGUAUGUUCUAAAAAUAGUUUUUUUUUGUCAUUU | -0.45
CUGUGCUACACAUCGUAUGUACCGAAUCGGUUUUUUUGGGGUUUUUUUGGUUUUUUUGGGGAAAGUAUUAUGUUACGCCGUUCGGAUCUG | -1.5
AGUCCUGUGCUACACAUCGUAUGUACCGAAUCGGGAAAAAAAGGGUGGGUUUUUGGGAAAGUAUUAUGUUACGCCGUUCGGAUCUGCACU | 0.751
AGUCCUGUGCUACACAUCGUAUGUACCGAAUCGGGGAAAAGGGGAAAAGGAAAAGGGGAAAGUAUUAUGUUACGCCGUUCGGAUCUGCAC | -0.337
UUAUGGAGUUUGGCCCUGAGGACAUGCUGCUGGGCAUGGAUGAGGCUGAAGAUGAUGAGGACCUGGAGGCUGAGCUGCUGGCUCUCACAG | -1.27
CCUGUGCUACACAUCGUAUGUACCGAAUCGGGUUUUUUGGGUUUUUUGGGUUUUUUGGGGAAAGUAUUAUGUUACGCCGUUCGGAUCUGC | -1.45
UAAUUUAGAUCUUAAAGAAAAAGUGGAGCCUGAGGUUCUCAGCACUGAUACCCAAACUUCCCCAGAGCCAGGCACAAGGAUGAACAUUCU | -1.17
UGAAAAGAACUGCUCUCCAUGGAGAGAGUAACUCUGUCCUUAUUAUCGGACCCCGAGGAUCAGGAAAAACUAUGGUAAAAGCUGUUGAUU | -1.78
GCAGGAAGUAAAAACAAAUGGAAAUGCUUCGGAUAGUGUCAGGGGUGGGGGUUGCUAAGGAAAGGGUGGGAUGGGAGUGGGUAAAGAGUU | 0.997
